# Results gathered from unrelated publications.
# Numbered parts are unrelated; each lists some results of a single study. Substitutions count along the parent as printed.

# Sample 1
# Target: Histone acetyltransferase KAT6A, winged helix 2, GST fusion (KAT6A, Homo sapiens, UniProt Q92794, residues 85-181)
# Technique: protein binding microarray
# Form: double-stranded DNA, one strand shown
# Matrix: in vitro
# Tested at: not given
# Setting: 8-mer, flanks averaged, mean of 2 arrays, mostly near background
# Relative to: not given
# Direction: higher = stronger binding
# Construct (chain): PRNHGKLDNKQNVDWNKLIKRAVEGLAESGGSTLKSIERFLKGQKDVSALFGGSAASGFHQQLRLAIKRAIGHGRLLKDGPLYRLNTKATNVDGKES
Strand,E-score
TCCCCAGA,0.00872
ATTAAATA,0.12
AAGATCCA,0.137
CTTCAAGA,0.0154
CATCGTAG,-0.0916
CAAGAATA,0.101
CTCTGTTC,0.00111
AATGAAAA,0.0545
CACTGCCG,0.266
CTCTCGGC,0.138
GGGCTATA,-0.234
ACTACGCG,0.0799
ACTTGATC,-0.097
CCAGGTTC,-0.0817
CGCCGGTC,0.0948
CGCATCCG,0.0929
GACATGGC,-0.0737
CGACCAAA,0.199

# Sample 2
# Target: Sal-like protein 4, full length isoform A (SALL4, Homo sapiens, UniProt Q9UJQ4, residues 1-1053)
# UniProt Q9UJQ4, sequence (whole entry, looked up): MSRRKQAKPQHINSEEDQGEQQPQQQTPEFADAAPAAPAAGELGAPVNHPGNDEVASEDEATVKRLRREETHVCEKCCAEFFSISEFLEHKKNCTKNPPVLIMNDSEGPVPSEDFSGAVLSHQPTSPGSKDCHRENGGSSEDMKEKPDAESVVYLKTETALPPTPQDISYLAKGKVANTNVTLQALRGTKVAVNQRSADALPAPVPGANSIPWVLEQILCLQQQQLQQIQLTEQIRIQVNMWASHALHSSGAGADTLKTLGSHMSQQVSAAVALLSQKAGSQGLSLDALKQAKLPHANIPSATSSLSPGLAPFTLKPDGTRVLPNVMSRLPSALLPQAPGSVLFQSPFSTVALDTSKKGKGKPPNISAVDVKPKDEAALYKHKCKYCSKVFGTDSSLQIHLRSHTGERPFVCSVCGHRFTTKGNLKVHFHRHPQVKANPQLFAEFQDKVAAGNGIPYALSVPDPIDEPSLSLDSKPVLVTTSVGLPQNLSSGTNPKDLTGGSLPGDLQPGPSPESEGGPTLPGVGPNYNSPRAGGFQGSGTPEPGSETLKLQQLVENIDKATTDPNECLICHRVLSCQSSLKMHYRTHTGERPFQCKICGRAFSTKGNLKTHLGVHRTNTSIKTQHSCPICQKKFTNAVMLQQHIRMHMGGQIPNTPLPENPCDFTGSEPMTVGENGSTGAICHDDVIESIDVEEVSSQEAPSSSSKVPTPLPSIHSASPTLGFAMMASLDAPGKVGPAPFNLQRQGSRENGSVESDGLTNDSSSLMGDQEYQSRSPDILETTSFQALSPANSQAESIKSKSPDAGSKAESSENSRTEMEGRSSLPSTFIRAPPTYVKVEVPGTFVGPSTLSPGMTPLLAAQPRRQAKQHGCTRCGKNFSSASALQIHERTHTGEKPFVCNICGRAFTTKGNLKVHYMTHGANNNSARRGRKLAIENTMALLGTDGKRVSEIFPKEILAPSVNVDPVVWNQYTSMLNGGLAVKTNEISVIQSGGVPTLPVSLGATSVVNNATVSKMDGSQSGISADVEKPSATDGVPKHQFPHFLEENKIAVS
# Technique: universal PBM
# Form: double-stranded DNA, one strand shown
# Matrix: in vitro
# Tested at: 600 nM
# Setting: 8-mer, flanks averaged, mean of replicates
# Direction: higher = stronger binding
Strand,E-score
AATAGTCG,-0.0187
GTACAAAC,0.0929
CATCCAGG,-0.232
CGGGAAAA,-0.0791
AATTAACC,0.0795
ATTCACCA,0.099
GATGCGAA,0.102
AATTCTAT,0.207
CAGGGGTA,-0.145
AAGAACGA,0.0752
AATTCTCC,-0.0231
AAGGACGT,0.149
CGATCTGA,-0.0696
ATCGGAAG,0.159
ACGAGAAG,-0.0173
GACGACGA,-0.0278
CTCGTACA,0.0327
TAATTGAA,0.228
AAATTGTT,0.327
CAGACAGA,-0.0246
ATTTCCCC,0.0576
CAAGTTGG,0.00734
GAAATTAC,0.34
CCATGGGC,-0.349
CGCAGGCC,-0.367

# Sample 3
# Target: RING finger protein unkempt homolog, zinc fingers 1-6, GST-SBP tag (UNK, Homo sapiens, UniProt Q9C0B0, residues 30-357)
# Technique: RNA Bind-n-Seq
# Form: RNA
# Matrix: in vitro
# Tested at: not given
# Setting: RNA with constant flanks, ends assumed
# Relative to: input RNA pool
# Direction: higher = stronger binding
# Constant ends, left off below: GGGAGUUCUACAGUCCGACGAUC … CAACAGAGGAUUGAGCAUCA
# Construct (chain): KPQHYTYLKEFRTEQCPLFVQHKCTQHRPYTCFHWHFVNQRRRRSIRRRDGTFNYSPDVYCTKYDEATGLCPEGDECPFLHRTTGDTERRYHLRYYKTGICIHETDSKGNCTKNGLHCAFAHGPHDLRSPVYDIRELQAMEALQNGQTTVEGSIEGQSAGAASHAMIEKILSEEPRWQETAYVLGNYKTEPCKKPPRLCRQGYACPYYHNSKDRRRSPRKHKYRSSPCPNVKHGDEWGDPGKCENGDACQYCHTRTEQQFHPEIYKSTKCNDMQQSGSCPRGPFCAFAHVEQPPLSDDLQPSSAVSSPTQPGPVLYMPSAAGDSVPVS
Strand,bound/input enrichment
UGGUUCCUGGAAGCUGAAGGCAAUGAAUGGCUACUUCAAGAACAGACCCCAUCUGGAGACACCGAGAAUAUUUCCAAUCAGCCGGCGAUUUCCCUGCAGAUUCCUACCCAUUGCUUGUCA,0.145 ratio
UUUAUAUUUAACUAAAUGUAAGGUACGAAUUAUUACAUAUUAAACUUUUCUUCCCCUUCCCCGUUCUGAAGUAGAUAUAUAUAUAUAUAUAUCUACUGUCACAUUCCAUAUAUUUUGAAU,5.77 ratio
ACGUGAUUUGGAGAGAGGUGUGGAAAUCUGUAUUGCAACACCUGGAAGACUGAUUGACUUUUCCGAGUGUGGAAAAACCAAUCUGAGAAGAACAACCUACCUUGUCCUUGAUGAAGCAGA,0.131 ratio
GUAGUUUGUUGUUUAAAAUAAUGUAAUCAUCAAAAUGAUACACAUGUUACACUACUAUUAACCCGGCUUCAAUAUAUCAGUGUUUAUUUCAUUGUGUUAAAUGUAUACUUGUAAAUAAAA,0.373 ratio
GAAGACAAGCCAGUGAACGUUAAUGAAGUACCUGACUAUCAAGAAGACAUUCACACGUACCUCCGGGAAAUGGAGGUUAAAUGUAAACCUAAAGUGGGUUACAUGAAGAGGCAGCCAGAC,0.193 ratio
GAAUAUGUGGCAAUCAAAACCAAGAAACGAAUCUUGCUGUACACCAUGAACCCCAACAAAUUCCGAGCUUGCCAGUUUCUGAUCAAGUUUCAUGAAAGGAGGAAUGACAAGAUUAUUGUC,0.122 ratio
UGUGAAAGUGAGGGGAGGCUCCUGUCCCCCUCUCUUAAGGUCCCCAAACCUGGGAGUGCACCGGUACUAAAUCAAGCAGUGCAACUUGUAAUUAAGCAGCUGCAGUGUUUACAUGUUUCU,0.135 ratio
CUCCCACCCGCGUGUGUAAGCGCGGCCCGCCUCCUACAUCCAGCCCGCGCCCUCCAACCGCACCGGAUCCAUGUAUUUAUUUUCCUUGAGUUUUUAUUUAUGCUGUAACUCGUGUCAAGC,0.912 ratio
AGGACCUAUUCCAAUAGGCUCUUGGUGUUUCCCAUAUCAAGAUUUCUGCUAGCUAAUGCACCGAGGGAAUACUGUCUAAAAAUAGACCCUUUCUUCCCAAAGGUUGGGAGGUGGGACCUG,0.324 ratio
GUCAUUGUCAUUCCGCAGUCCUCUCUCUCCACCAAUGCUGUUGUGGUGGAUCUUGGGCUAAUCCGAGUUCACAAUCGGUUCAGUCUGGUGUCUGGAGAAGACACUGCAAAUCCUCCAGUG,0.103 ratio
CGGACUGCUGGAGAUGGUGGAGUCCGUCAUGCCGGUGGUGGUGUGCACAUUGAGCCCCGGUACCGACAGUUCCCCCAGCUGACCAGAUCCCAGGUGUUCCAGAGCGAGUUCUUCAGCGGA,0.059 ratio

# Sample 4
# Target: Phosphate system positive regulatory protein PHO4, full length, GST-tagged (PHO4, Saccharomyces cerevisiae, UniProt P07270, residues 1-312)
# Technique: competition protein-binding microarray
# Form: double-stranded DNA, one strand shown
# Matrix: in vitro
# Tested at: 2 µM
# Setting: whole 60-bp probe, lowest competitor level
# Together with: Cbf1 competitor, 0.05 µM
# Direction: higher = stronger binding
# Constant ends, left off below: … GTCTTGATTCGCTTGACGCTGCTG
# Residues (chain): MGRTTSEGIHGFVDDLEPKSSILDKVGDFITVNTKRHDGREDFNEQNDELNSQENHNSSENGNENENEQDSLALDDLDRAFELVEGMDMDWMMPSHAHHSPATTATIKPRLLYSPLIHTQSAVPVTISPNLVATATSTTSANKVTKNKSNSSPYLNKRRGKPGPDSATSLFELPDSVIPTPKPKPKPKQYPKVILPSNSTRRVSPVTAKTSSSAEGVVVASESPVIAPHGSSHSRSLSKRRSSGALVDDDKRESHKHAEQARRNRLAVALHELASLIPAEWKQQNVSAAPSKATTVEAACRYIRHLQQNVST
Strand,fluorescence intensity
CTAACGAAGGTTTGCCGTGTGGGTGACAAGCCAAGT,5400 a.u.
TGTGGCTGCGTTCGTCACGGGTCCACCTCAGGCAGA,5540 a.u.
TAGCCCCCTATCTCCCACATGTTGGCATCTGTGAGG,9440 a.u.
CTAACGAAGGTTTGTCACGTGGGTGACAAGCCAAGT,13900 a.u.
ACAGTTTCCCACTGTCACACTTCACTGTTGCATACT,5580 a.u.
TGCGCAACAACTTTGCACGTGTTTTTATGTCTAGAA,18800 a.u.
TTGGGAAATATTCCTCACGTGGAATTTTTTGAGCGC,12400 a.u.
CGTCCTAGTGATTTTCACGTGGCATCCATGAGGAAG,13300 a.u.
ACTACGAGGGCCCTGTTCGTGGGACAGATTTCCATC,5750 a.u.
CTAACGAAGGTTTTTCACGTGTGCTACAAGCCAAGT,11600 a.u.
TGCGCAACAACTTGTGACGTGGGTGTATGTCTAGAA,6360 a.u.
CTTCTGTAAATTTGCCTGGTGGGTGGACGCGCCCCG,4400 a.u.
CTTTCCCGATCTTGATGGGTGGGTGTAGCACATTTG,4940 a.u.
TGCGCAACAACTTGTCACCAGACTTTATGTCTAGAA,3100 a.u.
AGTCGAGTACGATTCACTGTGACGGTCATCCTAGAT,3090 a.u.
AAAGCGGTAATTTGCTTTGTGGGTGCAGATATCTAT,3830 a.u.
CTAACGAAGGTTTGCCCGGTGGGTGACAAGCCAAGT,3730 a.u.
GTCTTGTCTCATTGTATTGTGGGTGTCCCCACTTCA,4940 a.u.
TAGTGTACTCGCGGCCACGATCCATCTGGATAACTA,6930 a.u.
AAATTACTAAGTTGTACAGTGGGTGACGCCGTATGA,4160 a.u.
CTTCTGTAAATTTGTCACTCCACTTGACGCGCCCCG,4200 a.u.
TCACTCATTCTAAAACCCGTGATGGCGCATCATACT,7870 a.u.
ATACTGTTGTATTTCCGCGTGAAGCCACTTTTAACC,5680 a.u.
CGGGGTTAAGTTTTTCACGTGGCGTGCCGTCGGCAG,10700 a.u.

# Sample 5
# Target: CCNE2, cyclin fold, Cln2 fusion (human)
# Technique: yeast growth competition, sequencing
# Matrix: yeast
# Setting: strong parent motif
# Relative to: not given
# Direction: higher = stronger binding
# Parent: E2F3 docking peptide (human); PPAKRRLELGESG; partner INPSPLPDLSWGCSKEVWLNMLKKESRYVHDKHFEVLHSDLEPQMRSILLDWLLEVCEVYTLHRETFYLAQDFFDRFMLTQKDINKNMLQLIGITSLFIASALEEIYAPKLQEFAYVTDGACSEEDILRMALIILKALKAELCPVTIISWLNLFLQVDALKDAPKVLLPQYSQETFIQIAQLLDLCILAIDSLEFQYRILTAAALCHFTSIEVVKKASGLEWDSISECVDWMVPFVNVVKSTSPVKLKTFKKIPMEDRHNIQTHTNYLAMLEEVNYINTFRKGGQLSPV
Change,normalised enrichment score
G10A,1.26
R5K,-0.171
P2A,1.09
E11A,1.48
P1A,1.08
R5K L9F,1.55
E8A,0.51
R5A L7A,0.0337
K4A,0.69

# Sample 6
# Target: RNA binding protein fox-1 homolog 2, RRM domain, GST-SBP tag (RBFOX2, Homo sapiens, UniProt O43251-10, residues 100-194)
# Technique: RNA Bind-n-Seq
# Form: RNA
# Matrix: in vitro
# Tested at: 365 nM
# Setting: natural RNA segment, single round, ends assumed
# Relative to: no-protein control
# Direction: higher = stronger binding
# Constant ends, left off below: GGGAGUUCUACAGUCCGACGAUC … UGGAAUUCUCGGGUGCCAA
# Residues (chain): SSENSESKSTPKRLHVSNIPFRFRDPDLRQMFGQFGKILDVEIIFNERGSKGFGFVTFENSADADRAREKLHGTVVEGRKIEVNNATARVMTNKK
Strand,RBNS enrichment (R)
AGGAGAGAUGCCUCAGGCUUCAGACCUUACCUGGGUUUUCAGGGCAAACAUAAAUGUAAAUACACUGAUUUAUUCUGUUACUAGAUCAGGUUUUAGGGUCCUGCAAAAGG,0.346
GAUUAGCUGUAAACAGUUUUCGAUAUUUUGGAUAUGGCCAAAAGUCUUUUGAAUCUAAAAUCUUGGAAGAAACCAAAUUUUUCAAUGAUGCUAUUGAAACAUACAAAGGU,0.345
CUACUAGUAACUUUAUCAAAUUUCAAAUUACAUGGUAAAAGAUCUGUAAAGGCUGCAUCCAUGUUAGUUGGCACAUAAAGGCAAUUAAUUGUAGAAGUUGAAACAUGAUC,0.256
AACAAAAACAAGAAACAAAUGUGCCCACCCCACUUUCCGCUUAACUGAAAAGCUUAAAAUAAAUUUCUGAAUUAUGUAUCCUGAAGCUUUGAAAUUUCUUUAUUAAUCGA,1.08
AAAUUCUUUUUGCACUUUGGCCUAUCCAGUAUCUUAUUUAUUCUCUAGAUAAGCUAGGAUAUUAAUCCAGAGUUACAUUACUGAGAAUUGAGUAGUAUAAGUAGGAUGUU,0.341
GUUUAGAUGCUGUGAAAUUAAACCUGUUCUAAGUGUACUUGUUUGAAUUAAUUGUAUUGUAAUAUUAUUUGUUGAAUGUAGUAAUUAGGUAUUUAUGAAUAUAUUGCUGU,0.884
GGCAGGGAGCAGAGGGCUUCUCGUUCAUGCACCCUUUGCCUGAACACCCAUGUAGCUGCUGUGUUGUGUAUAUAUUACUCUUAAGAGGAGUGUGUGUGUCUGUGUUUGUU,1.01
UGGGUACAUACUGGAGACAGCCAAGAGCUGAGUAUAUAAAGGAGAGGGAAUGUGCAGGAACAGAGGCGUCUUCCUGGGUUUGGCUCCCCGUUCCUCACUUUUCCCUUUUC,0.352
GUGGGAGUGUGGAUGGGGAGGAAGGUUCUAGGCUCUCUUAUUUUUCUCAUUUCCCAAUGCCUCUCUGUGGGAGAGCUCCAUGCCAGUUUUCACCACGCUCAGGCAAAUAC,0.333
ACCACCACCACCACCACCACCCCUUUUUAUCCUGGUGUGAAACAAUGGUAAUUUGAUAUAUGGUAUUUAUAUUGGCAUUUUUCAAUCCAGUGUCAGUAGCUGUCACGCGC,0.72
AUUAAAAAAAAAAAGAAAAGGAAAAAAGUAAAUGAAGCCCAACUACCUAACCCUUUCUUAUUUGUAUUUGUUUUAGUAUUGUGAAGUUGUGUUAAAUAGUACUAGCUAGA,0.554
GCGCUGUGCCAAAGCCAGGUCCGAGGCCAAAGUUCUCCCUGCCAUCCUUGGUGCCGUCCUGCCCCUUCCUCCUUCAUGCCUGGGCCUGCAGGCCCACCCCAGCCACCACU,0.615

# For quick reference, copied from above (sample 2):
Strand,E-score
CATCCAGG,-0.232
CGGGAAAA,-0.0791
AATTAACC,0.0795
ATTCACCA,0.099
GATGCGAA,0.102
AATTCTAT,0.207
CAGGGGTA,-0.145
AAGAACGA,0.0752
AATTCTCC,-0.0231
AAGGACGT,0.149
